Results pooled from the literature.
Each numbered part is a random draw from the data of one study; scales do not carry over between parts. Substitutions count along the parent as printed.

Block 1 — target: CCND2, cyclin fold, Cln2 fusion (human); method: yeast growth competition, sequencing; matrix: yeast; notes: weak parent motif; relative to: not given; reading: higher = stronger binding
Starting sequence: CCP110 docking peptide (human); EKVKRRLDLDIDG; partner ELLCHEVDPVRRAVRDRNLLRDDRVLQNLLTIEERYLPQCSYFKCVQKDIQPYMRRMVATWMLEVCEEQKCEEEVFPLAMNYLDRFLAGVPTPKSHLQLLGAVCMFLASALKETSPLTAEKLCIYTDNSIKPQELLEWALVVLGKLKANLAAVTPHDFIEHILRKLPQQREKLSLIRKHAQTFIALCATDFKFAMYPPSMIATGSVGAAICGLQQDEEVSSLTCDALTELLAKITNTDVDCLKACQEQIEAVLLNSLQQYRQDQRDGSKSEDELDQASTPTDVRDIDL
Under “normalised enrichment score”, `K4A` is recorded as 0.188.
Under “normalised enrichment score”, `V3A` is recorded as 0.14.
`L9F` — result for “normalised enrichment score”: 0.784.
`D8A`: “normalised enrichment score” -0.068.
For `D12A`, “normalised enrichment score” read 0.253.
`R6A` — result for “normalised enrichment score”: 0.0899.
For `R5A L7A`, “normalised enrichment score” read 0.31.
Under “normalised enrichment score”, `E1A` is recorded as 0.538.
For `R5A`, “normalised enrichment score” read 0.0837.
Under “normalised enrichment score”, `R5K` is recorded as -0.152.

Block 2 — method: protein binding microarray; form: double-stranded DNA, one strand shown; matrix: in vitro; tested at: not given; relative to: not given; reading: higher = stronger binding
Target: Histone acetyltransferase KAT6A, winged helix 1, GST fusion (KAT6A, Homo sapiens, UniProt Q92794, residues 1-85)
Notes: 8-mer, flanks averaged, mean of 2 arrays, mostly near background
Target sequence (chain): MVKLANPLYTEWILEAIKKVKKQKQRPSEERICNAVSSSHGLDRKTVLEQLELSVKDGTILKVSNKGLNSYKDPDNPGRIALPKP
The E-score of `ATGAGTAA` is reported as -0.0444.
For `CCGAAGTA`, the E-score was -0.00102.
The E-score of `CCTCAGCC` is reported as -0.146.
For `GATGCGCC`, the E-score was 0.286.
For `CCATGTAG`, the E-score was 0.00852.
`ACCAGCTG` gave an E-score of -0.139.
`ATAATTAG` has an E-score of -0.0466.
With `GGCTATCA` the E-score was 0.0719.
With `CTGACGAC` the E-score was -0.145.
`GCCGAGCC` has an E-score of 0.241.
`CGTTACTA` has an E-score of -0.0115.
The E-score of `CCCCACAA` is reported as -0.159.
`AAGCGCGG` has an E-score of 0.398.
The E-score of `CGAAGTAC` is reported as 0.0985.
`CTGCGTAC` gave an E-score of 0.0876.
`ATACCCGG` has an E-score of 0.237.
`CTGAGACA` gave an E-score of -0.306.
For `CTCCGGCA`, the E-score was 0.132.
`TATTCTGA` gave an E-score of -0.149.
With `CTAATCTC` the E-score was -0.144.
`ACGACACG` gave an E-score of -0.004.
`CAGTGATA` gave an E-score of -0.19.
`ACTTTACA` gave an E-score of -0.0106.
`AACGCGGT` has an E-score of 0.332.
With `ATCCCCGA` the E-score was 0.0403.

Block 3 — method: protein-binding microarray; form: double-stranded DNA, one strand shown; matrix: in vitro; tested at: 2200 nM top; notes: 60-bp whole probe; with: salmon DNA 0.4 mg/ml; relative to: random background probes; reading: higher = stronger binding; constant ends, left off below: GCCTAGCAC … GTCTTGATTCGCTTGACGCTGCTG
Target: Interferon regulatory factor 7, full length, phosphomimetic (IRF7, Homo sapiens, UniProt Q92985, residues 1-503, S471D/S472D/S475D/S476D/S477D/S483D/S484D/S487D)
Chain of UniProt Q92985 (whole entry, unmodified, looked up): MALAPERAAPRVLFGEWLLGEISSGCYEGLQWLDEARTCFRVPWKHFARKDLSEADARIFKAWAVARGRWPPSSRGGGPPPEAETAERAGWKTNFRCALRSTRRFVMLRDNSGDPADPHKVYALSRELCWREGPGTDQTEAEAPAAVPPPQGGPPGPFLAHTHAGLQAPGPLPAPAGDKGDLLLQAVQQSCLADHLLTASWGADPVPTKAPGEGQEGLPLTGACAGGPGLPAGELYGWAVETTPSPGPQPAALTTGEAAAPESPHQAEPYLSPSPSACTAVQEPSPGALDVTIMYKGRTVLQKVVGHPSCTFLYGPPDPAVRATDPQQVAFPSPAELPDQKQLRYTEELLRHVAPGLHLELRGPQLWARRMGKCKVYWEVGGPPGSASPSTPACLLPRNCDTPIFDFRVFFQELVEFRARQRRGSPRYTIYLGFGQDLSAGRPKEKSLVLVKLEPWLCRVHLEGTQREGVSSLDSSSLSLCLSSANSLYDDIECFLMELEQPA
Under “fitted relative affinity”, `GACTGTATCGGGACTGGGGACGTGCTA` is recorded as -0.535 z-score.
For `TTAGGACTGCTACTGCTTCAGTGCTAG`, “fitted relative affinity” read -0.105 z-score.
`GACGATTGCAGTTCCGAGACGTGCTAG` — result for “fitted relative affinity”: 0.539 z-score.
`TTGGATATCAGTCTCGATTAGTGCTAG` — result for “fitted relative affinity”: 0.596 z-score.
Under “fitted relative affinity”, `TTAGAACTGGGGACCGGATTAGTGCTA` is recorded as -0.723 z-score.
`AAACAAGTTTCACGTCTTATAGTGCTA` — result for “fitted relative affinity”: 0.717 z-score.
`TCATGCTTGGGTCTGGGACTGTGCTAG` — result for “fitted relative affinity”: -0.121 z-score.
`GATGGTTTCGACTATCGGGACGTGCTA` — result for “fitted relative affinity”: 3.37 z-score.
`TTAGGACTGCTTTTGCTTTAGTGCTAG` — result for “fitted relative affinity”: 1.82 z-score.
`AGCTGTTTGAGAAATCAGATGGTGCTA` — result for “fitted relative affinity”: -0.291 z-score.
`AATTAGGTTTCACTTTCCAAAGTGCTA`: “fitted relative affinity” 5.69 z-score.
For `GACGGACTGGTACTGCTGACGTGCTAG`, “fitted relative affinity” read -0.427 z-score.
`GGGCCTAGCCATTATGAGTCTGTGCTA` — result for “fitted relative affinity”: -1.19 z-score.
`GACGAACTGTGTATCGAGACGTGCTAG`: “fitted relative affinity” 0.183 z-score.
`ATCCATTTTGGTTTTCATTAGTGCTAG` — result for “fitted relative affinity”: 3.24 z-score.
For `GACGGTCTCGGTATCGGGATGTGCTAG`, “fitted relative affinity” read 0.141 z-score.
Under “fitted relative affinity”, `GACGGCCTGGGACTGGGGACGTGCTAG` is recorded as -1.26 z-score.
For `TTAGGACTGGTTCTCCTTTAGTGCTAG`, “fitted relative affinity” read 0.528 z-score.
For `TCATTTATGTACTCTCTAACTGTGCTA`, “fitted relative affinity” read 1.38 z-score.

Block 4 — method: DHFR PCA, deep sequencing; matrix: yeast; with: (+)-ABA 710 µM; relative to: wild-type fitted maximum; reading: higher = stronger binding
Target: ABI1, truncated, D143A, DHFR fusion (Arabidopsis thaliana)
Notes: methotrexate growth selection, single substitutions
Starting sequence: PYL1, truncated, DHFR fusion (Arabidopsis thaliana); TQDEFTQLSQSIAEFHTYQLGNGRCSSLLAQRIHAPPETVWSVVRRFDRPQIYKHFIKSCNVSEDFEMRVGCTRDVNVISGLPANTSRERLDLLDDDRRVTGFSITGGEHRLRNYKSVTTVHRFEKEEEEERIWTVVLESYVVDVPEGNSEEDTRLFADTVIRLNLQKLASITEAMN
`A175C` — result for “relative binding score”: 100%.
Under “relative binding score”, `D75G` is recorded as 90.5%.
Under “relative binding score”, `D48L` is recorded as 19%.
Under “relative binding score”, `S42Y` is recorded as 89.9%.
Under “relative binding score”, `E4M` is recorded as 109%.
Under “relative binding score”, `S150I` is recorded as 85.3%.
Under “relative binding score”, `F157Y` is recorded as 92.5%.
`N61Y` — result for “relative binding score”: 99.5%.
`E109G` — result for “relative binding score”: 96.2%.
For `I57L`, “relative binding score” read 99.1%.

Block 5 — method: RNA Bind-n-Seq; form: RNA; matrix: in vitro; tested at: 200 nM; notes: whole 134-nt RNA, ends assumed; with: 150 mM LiCl; relative to: input library; reading: higher = stronger binding; all molecules: 7-deaza-guanosine replaces G
Target: Fragile X messenger ribonucleoprotein 1, C-terminal low-complexity region (Fmr1, Mus musculus, UniProt P35922)
For `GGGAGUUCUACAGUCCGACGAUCUCCUGUGCUACACAUCGUAUGUACCGAAUCGGGUUUUUGGGAAAAAAAGGGAAAAAGGGAAAGUAUUAUGUUACGCCGUUCGGAUCUGCAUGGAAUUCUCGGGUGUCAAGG`, the log2 enrichment was -1.62.
`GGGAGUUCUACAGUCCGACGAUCAAGUCCUGUGCUACACAUCGUAUGUACCGAAUCGGAAAAGGAAAAGGGGAAAAGGGGAAAGUAUUAUGUUACGCCGUUCGGAUCUGCACUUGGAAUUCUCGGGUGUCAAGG` gave a log2 enrichment of 0.398.
`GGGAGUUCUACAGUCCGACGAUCUGGGAGGUGGAUUUUGUUUAUUUUUUUAGCUCAUUUCCAGGGGUGGGAAUUUUUUUUUAAUAUGUGUCAUGAAUAAAGUUGUUCUUGAAAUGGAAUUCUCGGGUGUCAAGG` gave a log2 enrichment of 0.0773.
`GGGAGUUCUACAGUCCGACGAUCUAUGGACAAGCAUAAUGGAACAGACAGGUUUGUGAACCAGCAGUUUCAAGAGGAAAAGUUAAAUAAAUUGCAGAAGUUACUUAUUCUUUUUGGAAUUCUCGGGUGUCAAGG` has a log2 enrichment of -3.24.
With `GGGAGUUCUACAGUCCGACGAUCUGGGAGGUGGAUUUUGUUUAUUUUUUUAUCUCAUUUCCAGGGGUGGGAAUUUUUUUUUAAUAUGUGUCAUGAAUAAAGUUGUUUUUGAAAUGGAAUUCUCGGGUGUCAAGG` the log2 enrichment was -0.521.
`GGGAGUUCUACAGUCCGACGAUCCUGUGCUACACAUCGUAUGUACCGAAUCGGGAAAAAAGGGGAAAAAAGGGGAAAAAAGGGGAAAGUAUUAUGUUACGCCGUUCGGAUCUGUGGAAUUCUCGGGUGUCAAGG` has a log2 enrichment of 0.956.
For `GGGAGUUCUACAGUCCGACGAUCUAACUUUAGAGGAGGAUCUGAUGGAUAUGGCAGUGGACGUGGAUUUGGGGAUGGCUAUAAUGGGUGUGGAGGAGGACCUGGAGGUGGCAAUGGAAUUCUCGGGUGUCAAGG`, the log2 enrichment was 0.751.
For `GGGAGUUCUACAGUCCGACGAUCCACAGACAACACGCACCCACACAGACACAGAGGGAAGGGGUUGGGAUGGGGACAGGGUGCACAGGAGGGCGGGGUAGGACCCCAGCCCCUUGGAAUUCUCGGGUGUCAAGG`, the log2 enrichment was 0.0961.

Repeated from above (block 4):
Under “relative binding score”, `D75G` is recorded as 90.5%.
Under “relative binding score”, `D48L` is recorded as 19%.
Under “relative binding score”, `S42Y` is recorded as 89.9%.
Under “relative binding score”, `E4M` is recorded as 109%.
